Assay results from different studies.
Parts stem from different laboratories: compare values within a part only. Positions count from the first letter of the parent shown.

Set 1
Target: Histone acetyltransferase KAT6A, winged helix 2, GST fusion (KAT6A, Homo sapiens, UniProt Q92794, residues 85-181)
Technique: protein binding microarray
Form: double-stranded DNA, one strand shown
Sample: in vitro
Tested at: not given
Setting: 8-mer, flanks averaged, mean of 2 arrays, mostly near background
Reference: not given
Reading: higher = stronger binding
Residues (chain): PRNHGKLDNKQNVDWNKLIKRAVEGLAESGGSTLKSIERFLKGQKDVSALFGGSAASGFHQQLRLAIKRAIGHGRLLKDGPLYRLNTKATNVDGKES
| Sequence | E-score |
| --- | --- |
| ACGGTACT | -0.0777 |
| CACTGGCA | 0.113 |
| AACCACGA | -0.238 |
| TATCGGAA | -0.0883 |
| AAGGTAAG | -0.0246 |
| ACACTCAT | -0.0481 |
| AGCAGAGA | 0.0107 |
| AGGTGTGG | -0.109 |

Set 2
Target: CCND3, cyclin fold, Cln2 fusion (human)
Technique: yeast growth competition, sequencing
Sample: yeast
Setting: weak parent motif
Reference: not given
Reading: higher = stronger binding
Starting sequence: MASTL docking peptide (human); PMIAKNLMCELDE; partner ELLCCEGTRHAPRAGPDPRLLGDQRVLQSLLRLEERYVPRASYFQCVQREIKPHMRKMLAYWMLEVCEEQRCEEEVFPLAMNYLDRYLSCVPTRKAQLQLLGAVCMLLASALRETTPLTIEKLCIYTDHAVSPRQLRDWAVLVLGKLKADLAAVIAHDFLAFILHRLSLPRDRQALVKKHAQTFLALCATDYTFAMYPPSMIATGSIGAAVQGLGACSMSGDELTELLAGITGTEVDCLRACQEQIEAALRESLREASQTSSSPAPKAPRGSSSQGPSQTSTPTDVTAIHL
| Variant | normalised enrichment score |
| --- | --- |
| E10F | -0.174 |
| A4K | 0.161 |
| L11M | -0.454 |
| K5W | -0.23 |
| C9L | -0.246 |
| M2L | 0.182 |
| E10R | 0.359 |

Set 3
Target: RNA binding protein fox-1 homolog 2, RRM domain, GST-SBP tag (RBFOX2, Homo sapiens, UniProt O43251-10, residues 100-194)
Technique: RNA Bind-n-Seq
Form: RNA
Sample: in vitro
Tested at: 365 nM
Setting: natural RNA segment, single round, ends assumed
Reference: no-protein control
Reading: higher = stronger binding
All sequences stand within: GGGAGUUCUACAGUCCGACGAUC … UGGAAUUCUCGGGUGCCAA
Construct (chain): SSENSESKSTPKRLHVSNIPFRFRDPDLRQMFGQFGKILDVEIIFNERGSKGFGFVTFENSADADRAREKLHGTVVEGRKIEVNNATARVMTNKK
| Sequence | RBNS enrichment (R) |
| --- | --- |
| CACACAUAGCCUAGAGCUCAGUUUUAGUUUAACAUUGUGAAAAUAUUAAAAGAAUCUUGUAACUUUAUUCUUUUUUUUCUCCUGCUGAAACAAAUUAAACCAAUCAUAUG | 0.636 |
| GUCACAUUCCCUGUGUUCAGAGCCUGGAAAUGAAAUUGAGUUCAGUUCAGCCUCUCUGUAAUGAAUCAAGAAAUGUAAAAGAGCUUUGAGACCCCAAGGGAAAGGAGAGA | 0.751 |
| UGGGUCAGGGGCUCAGUAUGAGAAGAAGAAAUAUGAACAGCAAAUAAAACAUUUUUGUAUAAGCUCAUGCGUGUUUCUUUUCCCCAGCCCCAGCUCUGGCUUAUGUACCU | 0.284 |
| AAAUGAAAACUAUAAAUUGCAAGUAUUCUGGAAUUGGGAAAUACUUAUUUUAAAUGAGAUCAGGUAGUGUUGCUUUUUACAGCAUAAUAAAUAUGUGUAUUGAAAACAAA | 0.874 |
| UCAGAAGAAGAAGGAACCCAUAGCUUGGUGUCAUUAACAUAAUUAUUUUAAGCCUUAUCCAGCAGCCAUAAUUUGAAUAACUCUACGAGACCAGAGAGACUGUAGUUCCC | 0.331 |
| AUGACAACUUCUAAUUGCCAUGUACAGUAUGUUCAAAGUCAAAUAACUCCUCAUUGUAAACAAACUGUGUAACUGCCCAAAGCAGCACUUAUAAAUCAGCCUAACAUAAG | 0.698 |
| ACGACGUCCAUCCGUCCCACAGAGUGGGACCGACCGCCCCUGCUGCUCCAGCCAGGGCCCCUGCGCUUCCUGUGCAGACAGGAAGCUGUGUGGGAGACUGUCAUUUGGGA | 0.161 |
| GUGGAGAAAACAUUUUCAUGCCUAAAAAUGUCUUUGAGAUAAUGCCAAUUCUGAUGUCCCUUACCUUUUGGCCAAGAAGUUUGAGAUUUUUUCAGCUAAUUUGUUAUUUG | 0.511 |

Further values, each from its own experiment
| Molecule | target | assay | test system | conditions | scale | measurement | value |
| --- | --- | --- | --- | --- | --- | --- | --- |
| PhoQ, residues 284 288 289 292 302 303 TLMATV | PhoP, residues 12 14 15 18 19 IQFRS (Escherichia coli, UniProt P23836) | Sort-seq, measured: YFP reporter | E. coli | PhoQ-PhoP variant library, together with: 10 µM Mg2+ | reference: high Mg2+ state, higher = stronger signaling | fold induction | 7.86 |

A few entries again (set 3):
| Sequence | RBNS enrichment (R) |
| --- | --- |
| CACACAUAGCCUAGAGCUCAGUUUUAGUUUAACAUUGUGAAAAUAUUAAAAGAAUCUUGUAACUUUAUUCUUUUUUUUCUCCUGCUGAAACAAAUUAAACCAAUCAUAUG | 0.636 |
| GUCACAUUCCCUGUGUUCAGAGCCUGGAAAUGAAAUUGAGUUCAGUUCAGCCUCUCUGUAAUGAAUCAAGAAAUGUAAAAGAGCUUUGAGACCCCAAGGGAAAGGAGAGA | 0.751 |
| UGGGUCAGGGGCUCAGUAUGAGAAGAAGAAAUAUGAACAGCAAAUAAAACAUUUUUGUAUAAGCUCAUGCGUGUUUCUUUUCCCCAGCCCCAGCUCUGGCUUAUGUACCU | 0.284 |
